Assay results of several laboratories.
Every numbered part comes from another study and shows a few of its results, in no order. Positions count from the first letter of the parent shown.

Sample 1 — technique: RNA Bind-n-Seq; form: RNA; sample: in vitro; tested at: 365 nM; baseline: no-protein control; reading: higher = stronger binding
Target: RNA binding protein fox-1 homolog 2, RRM domain, GST-SBP tag (RBFOX2, Homo sapiens, UniProt O43251-10, residues 100-194)
Notes: natural RNA segment, single round, ends assumed
Constant ends, left off below: GGGAGUUCUACAGUCCGACGAUC … UGGAAUUCUCGGGUGCCAA
Target sequence (chain): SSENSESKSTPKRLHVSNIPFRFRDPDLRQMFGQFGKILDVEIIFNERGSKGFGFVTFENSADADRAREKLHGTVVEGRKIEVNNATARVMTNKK
Sequence	RBNS enrichment (R)
AAAUUUCAUGAUUGGCUUAAAGUGAAGGAAAUAAAGGUAAAAUCACUUCAGAUCUCUAAUUAGUCUAUCAAAUGAAACUCUUUCAUUCUUCUCACAUCCAUCUACUUUUU	0.513
ACCUGAGGGAGCAUUCAGCAAGUCAGUUUGAGAUUAUUUUUCCUUUUCUACGUUGGAACGUGCCCCGGAAUGUGGCCGUCGGCACACUUCUCAGGACAAUGAAUCCUUCC	0.353
AAAAUAACUACCCUCAGCAAACACUAGCUGUUCUGCUCAUAUAUGAAUUUUUAAUGCAGCAAUGUUGACUUUGUUUCAUACUGCCAAUAAACUCUUAAUACUAAAUACUG	0.409
UACAUUUGGAAUUAACUGAAGCCAAACUGCUGGGUACACCUGUGAGGAUUUUUUUUUCCUUAAGUAAAUCAUUUCAAGUGUAAAAACUAUUUUCUUUUAAUCUGGAUCUU	0.466
AGACUAGUCAAGAUGUGAAUGCUAAUUGGAGAGAAAUAUAAUUUUAGGAAGAUGCACAUUGAUGUGGGGUUUUGAUGUGUCUGAUUUUGACUACUCAAGCUCUGUUUACA	0.888
GGCCAUUUGAGUCUUUGUAACCUAGGAAAGACAAAGGUCUGAUUCAGAUUGCAUGGGGGAUUUUUAACAUAUUUGAAACUCAGGGGGAACAUGAUUAAGAACACAAACUG	5.98
CCUUUUCAAUCUGGAGCCCUUAAACCAUAAGUCCAAAUAUGAAUUAUUUGUGAACAGUUAAUGACCCAUAUUAGAAUUUUACAAUCUGGUGAACAAUCUGGGUAAAAGGC	0.373
CUCUGCUUACAUACUUCCAGGGACGGUGAGCUCACGCUCUCUCCGGGCAGCCCUGUGAGUUUCCUAUCUGUUCCAGACUAGUAUCGCCAAUCUCUCCCAGCUCUCUUCUU	0.375
UCACACUGGAAGGAGGCUAAGUCUCAGUCUUCAAGUUCUGGACUUUCUUCUCUCCAGUGGCACUUGUUGGCAACUAGAUACAGGUUUCUAACCGGUUCACGGUUCACCCC	0.183
CUUGCUCUACUUGAAAUUAAUUGUGAGCAUAAGCUUGUUUCUGGAGUCUUCUUACAUUGUUGGUUCUACUUACAUACUACUGGUCCAACUCUCAUGCUGUUUCUCUCAGA	0.486
CCUGGGACUUCCCUGCAGUGAGAGAGCAUCUCCCCCUGGUCCAUGCCCCUCCUGUGCAGAAGGGAGCCUGCAUCCCUCCCUUCCUUUCUCUUACUGCCAUAGGAAAUUAU	1.62
CAGGGGGGCUGACUGCCUAGUGGCUCAACCUCCUGAACCCACCCACUCCCAGCGAUGCUACCCAGAACCCCAACGGCAUGAAUCCUGCACAGUGCCGGGCAGUGCCAGAC	0.337

Sample 2 — technique: universal PBM; form: double-stranded DNA, one strand shown; sample: in vitro; tested at: 600 nM; reading: higher = stronger binding
Target: Sal-like protein 4, full length isoform A (SALL4, Homo sapiens, UniProt Q9UJQ4, residues 1-1053)
Chain of UniProt Q9UJQ4 (whole entry, looked up): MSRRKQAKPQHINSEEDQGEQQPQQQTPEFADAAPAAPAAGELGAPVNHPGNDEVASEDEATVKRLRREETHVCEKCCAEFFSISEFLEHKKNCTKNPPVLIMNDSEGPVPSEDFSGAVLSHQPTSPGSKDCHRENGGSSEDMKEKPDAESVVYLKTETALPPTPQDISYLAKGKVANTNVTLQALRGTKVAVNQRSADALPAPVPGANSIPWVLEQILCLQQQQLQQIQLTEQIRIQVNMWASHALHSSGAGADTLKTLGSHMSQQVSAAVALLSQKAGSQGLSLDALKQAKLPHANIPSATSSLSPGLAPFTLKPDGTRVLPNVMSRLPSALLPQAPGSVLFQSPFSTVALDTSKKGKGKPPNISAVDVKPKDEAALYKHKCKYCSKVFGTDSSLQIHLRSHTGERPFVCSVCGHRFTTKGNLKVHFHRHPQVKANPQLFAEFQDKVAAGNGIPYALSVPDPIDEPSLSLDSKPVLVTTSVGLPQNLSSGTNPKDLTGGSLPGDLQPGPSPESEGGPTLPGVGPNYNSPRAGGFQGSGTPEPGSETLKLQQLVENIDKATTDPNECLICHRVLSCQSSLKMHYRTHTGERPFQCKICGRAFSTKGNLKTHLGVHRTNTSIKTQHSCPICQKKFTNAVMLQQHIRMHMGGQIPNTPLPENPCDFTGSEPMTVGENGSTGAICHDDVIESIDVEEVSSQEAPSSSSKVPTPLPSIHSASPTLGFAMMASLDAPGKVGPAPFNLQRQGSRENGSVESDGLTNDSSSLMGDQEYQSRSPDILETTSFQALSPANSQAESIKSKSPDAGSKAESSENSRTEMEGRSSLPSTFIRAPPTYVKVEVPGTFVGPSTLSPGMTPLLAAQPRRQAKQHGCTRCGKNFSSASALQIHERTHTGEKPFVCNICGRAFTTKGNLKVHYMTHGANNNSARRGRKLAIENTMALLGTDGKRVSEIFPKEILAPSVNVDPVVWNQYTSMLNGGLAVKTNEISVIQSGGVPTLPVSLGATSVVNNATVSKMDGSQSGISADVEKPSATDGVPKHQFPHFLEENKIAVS
Notes: 8-mer, flanks averaged, mean of replicates
Sequence	E-score
AAGAGACA	0.0974
ATAGGAAT	0.235
CCTTGTAA	0.24
CCTTCCAC	-0.0892
AATCGAAT	0.258
GGCCCCCC	-0.438
GATAACCC	-0.0889
ATTAGACG	0.118

Sample 3 — target: CCNA2, cyclin fold, Cln2 fusion (human); technique: yeast growth competition, sequencing; sample: yeast; notes: weak parent motif; baseline: not given; reading: higher = stronger binding
Parent: SLBP docking peptide (human); ARYKRKLLINDFG
Variant	normalised enrichment score
L8C	0.615
K4W	2.04
G13Y	1.38
K4E	0.42
A1C	0.742
A1W	0.76
D11Q	1.45
I9Q	0.991
I9V	0.834
K6C	2.16
D11I	1.78

Mixed results
Substance	target	assay	system	conditions	scale	endpoint	result
PhoQ, residues 284 288 289 292 302 303 ASVMEA	PhoP, residues 12 14 15 18 19 GHCSL (Escherichia coli, UniProt P23836)	Sort-seq, measured: YFP reporter	E. coli	PhoQ-PhoP variant library, together with: 10 µM Mg2+	baseline: high Mg2+ state, higher = stronger signaling	fold induction	15.5

For quick reference, copied from above (sample 2):
Sequence	E-score
CCTTCCAC	-0.0892
ATAGGAAT	0.235
AATCGAAT	0.258
GGCCCCCC	-0.438
